Measured values collected from several papers.
Parts stem from different laboratories: compare values within a part only. Substitutions count along the parent as printed.

Sample 1
Target: tungstate, free oxyanion
Technique: microfluidic competitive inhibition
Matrix: in vitro, cell-free expressed
Concentration: not given
Setting: derived from inhibition constants, unchanged parent 2230 nM
Direction: lower = stronger binding
Starting sequence: PafA, mature enzyme, eGFP fusion (Elizabethkingia meningoseptica, UniProt Q9KJX5); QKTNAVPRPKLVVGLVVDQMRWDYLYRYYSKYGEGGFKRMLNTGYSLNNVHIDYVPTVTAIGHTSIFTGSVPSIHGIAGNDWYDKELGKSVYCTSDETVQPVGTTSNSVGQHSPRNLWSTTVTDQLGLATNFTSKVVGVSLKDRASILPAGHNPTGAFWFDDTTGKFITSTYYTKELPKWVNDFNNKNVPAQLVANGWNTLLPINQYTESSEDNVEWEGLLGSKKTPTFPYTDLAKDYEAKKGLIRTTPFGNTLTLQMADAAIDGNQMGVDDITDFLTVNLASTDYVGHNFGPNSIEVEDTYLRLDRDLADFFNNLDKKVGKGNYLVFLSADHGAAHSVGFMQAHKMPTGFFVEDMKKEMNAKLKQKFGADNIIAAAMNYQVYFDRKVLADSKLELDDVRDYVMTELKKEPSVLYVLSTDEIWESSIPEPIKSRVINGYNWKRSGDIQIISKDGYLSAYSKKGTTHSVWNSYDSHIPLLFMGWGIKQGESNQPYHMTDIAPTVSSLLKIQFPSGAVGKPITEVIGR
`I245G`: “oxyanion analog dissociation constant” 649 nM.
`Y455V` — result for “oxyanion analog dissociation constant”: 2.39 µM.
`A259V`: “oxyanion analog dissociation constant” 2.44 µM.
For `G369A`, “oxyanion analog dissociation constant” read 2.17 µM.
For `N252G`, “oxyanion analog dissociation constant” read 3.35 µM.
`W483V` — result for “oxyanion analog dissociation constant”: 2.16 µM.

Sample 2
Target: chymotrypsin
Effect on: enzyme activity
Action: inhibitor
Concentration: 10 µM
Setting: with DTT
`CCOc1cc(C(Nc2cc(C)ccn2)c2ccc3cccnc3c2O)ccc1OC` (stereo not shown) has an inhibition of 13.4%.
For `COC(=O)CC[C@H](NC(=O)[C@H](CC(=O)OC)NC(=O)OCc1ccccc1)C(=O)N[C@H](C(=O)N[C@@H](CC(=O)OC)C(=O)CF)C(C)C`, the inhibition was 11.2%.
For `O=c1c(O)c(-c2cc(O)c(O)c(O)c2)oc2cc(O)cc(O)c12`, the inhibition was 3.8%.
The inhibition of `C[C@H]1COC2=C1C(=O)C(=O)c1c2ccc2c1CCCC2(C)C` is reported as -3.7%.
The inhibition of `CC(=O)O/N=C1\C(=O)N(Cc2cc(Cl)ccc2Cl)c2ccc(Cl)cc21` is reported as 2.7%.

Sample 3
Substance: PhoQ, residues 284 288 289 292 302 303 GASLAW
Technique: Sort-seq
Measured: YFP reporter
Matrix: E. coli
Setting: PhoQ-PhoP variant library
Added: 10 µM Mg2+
Reference: high Mg2+ state
Direction: higher = stronger signaling
PhoP, residues 12 14 15 18 19 QYCSL (Escherichia coli, UniProt P23836) — fold induction: 1.14.
It gave 5.66 for fold induction (PhoP, residues 12 14 15 18 19 STHWV (Escherichia coli, UniProt P23836)).
PhoP, residues 12 14 15 18 19 SHWTV (Escherichia coli, UniProt P23836) — fold induction: 0.973.

Sample 4
Target: CEBPA, bZIP domain (human)
Technique: DHFR protein complementation
Matrix: yeast
Setting: single substitutions, most at no-binding floor
Reference: wild-type JUN-FOS pair
Direction: higher = stronger binding
Starting sequence: JUN, bZIP domain (human); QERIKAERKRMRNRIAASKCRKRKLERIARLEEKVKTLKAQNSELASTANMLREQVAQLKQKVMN; partner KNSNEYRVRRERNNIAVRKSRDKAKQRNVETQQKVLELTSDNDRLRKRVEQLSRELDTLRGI
For `E54W`, the binding fitness was -1.46 natural log.
For `E33T`, the binding fitness was -1.41 natural log.
`A40Q` has a binding fitness of -1.45 natural log.
For `K39Y`, the binding fitness was -1.36 natural log.
`L52V` gave a binding fitness of -1.45 natural log.
`A57E` has a binding fitness of -1.46 natural log.
`N42S` has a binding fitness of -1.5 natural log.
`L31N` gave a binding fitness of -1.49 natural log.

Sample 5
Target: CCNB2, cyclin fold, Cln2 fusion (human)
Technique: yeast growth competition, sequencing
Matrix: yeast
Setting: weak parent motif
Reference: not given
Direction: higher = stronger binding
Starting sequence: SLBP docking peptide (human); ARYKRKLLINDFG; partner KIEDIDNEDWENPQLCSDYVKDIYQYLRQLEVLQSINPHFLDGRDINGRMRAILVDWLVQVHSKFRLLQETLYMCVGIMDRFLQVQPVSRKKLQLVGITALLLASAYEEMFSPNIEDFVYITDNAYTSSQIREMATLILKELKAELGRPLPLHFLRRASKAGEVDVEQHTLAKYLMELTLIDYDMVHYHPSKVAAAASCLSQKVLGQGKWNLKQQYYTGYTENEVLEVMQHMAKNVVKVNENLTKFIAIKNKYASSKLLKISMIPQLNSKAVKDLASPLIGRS
For `ARYKRKLLIPDFG [N10P]`, “normalised enrichment score” read 0.729.
`ARYLRKLLINDFG [K4L]` — result for “normalised enrichment score”: 0.924.
`ARYKRKLLINAFG [D11A]` — result for “normalised enrichment score”: 0.597.
For `AVYKRKLLINDFG [R2V]`, “normalised enrichment score” read 0.511.
Under “normalised enrichment score”, `ARYKRKLYINDFG [L8Y]` is recorded as 0.726.
`ARYKRKLLIHDFG [N10H]`: “normalised enrichment score” 0.521.
`ARYKRKLLINDFV [G13V]` — result for “normalised enrichment score”: 1.26.
For `ARQKRKLLINDFG [Y3Q]`, “normalised enrichment score” read 0.614.

Sample 6
Target: UDP-N-acetylglucosamine--peptide N-acetylglucosaminyltransferase 110 kDa subunit (OGT, Homo sapiens, UniProt O15294)
Sequence of UniProt O15294 (whole entry, looked up): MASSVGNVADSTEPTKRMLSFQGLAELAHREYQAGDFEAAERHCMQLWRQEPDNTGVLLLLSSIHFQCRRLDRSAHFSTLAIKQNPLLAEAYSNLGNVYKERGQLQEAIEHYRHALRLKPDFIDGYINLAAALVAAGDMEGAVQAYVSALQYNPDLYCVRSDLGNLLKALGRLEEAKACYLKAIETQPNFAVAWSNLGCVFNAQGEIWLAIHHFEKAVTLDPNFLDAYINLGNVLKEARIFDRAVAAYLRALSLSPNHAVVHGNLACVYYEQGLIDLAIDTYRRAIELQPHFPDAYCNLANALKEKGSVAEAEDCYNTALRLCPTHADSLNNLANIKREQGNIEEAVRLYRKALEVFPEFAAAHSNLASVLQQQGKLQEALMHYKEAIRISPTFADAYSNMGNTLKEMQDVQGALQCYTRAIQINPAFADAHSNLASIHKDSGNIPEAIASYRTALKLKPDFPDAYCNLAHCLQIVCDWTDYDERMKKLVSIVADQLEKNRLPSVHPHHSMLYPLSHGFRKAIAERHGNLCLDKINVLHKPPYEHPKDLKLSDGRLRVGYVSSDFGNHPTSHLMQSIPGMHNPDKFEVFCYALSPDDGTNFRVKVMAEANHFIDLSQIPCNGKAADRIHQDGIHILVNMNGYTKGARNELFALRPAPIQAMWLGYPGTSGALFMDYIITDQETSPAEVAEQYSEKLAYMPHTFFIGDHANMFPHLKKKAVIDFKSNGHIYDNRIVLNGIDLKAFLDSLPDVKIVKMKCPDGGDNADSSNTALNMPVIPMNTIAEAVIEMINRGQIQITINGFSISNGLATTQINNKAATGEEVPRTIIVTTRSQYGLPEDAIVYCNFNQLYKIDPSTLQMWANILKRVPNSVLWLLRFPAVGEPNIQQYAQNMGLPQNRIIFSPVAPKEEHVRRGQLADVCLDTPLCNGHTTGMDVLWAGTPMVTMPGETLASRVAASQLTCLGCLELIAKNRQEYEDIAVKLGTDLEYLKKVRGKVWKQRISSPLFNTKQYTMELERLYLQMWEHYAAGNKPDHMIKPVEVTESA
Effect on: binding
Technique: phage display NGS
Form: peptide
Reference: input library
`FPVHHHYKWFQHEVD` — result for “minimum log2 enrichment ratio”: 2.67.
Under “minimum log2 enrichment ratio”, `QVMNEHRHHMRHQIY` is recorded as 1.51.
For `ETYFPPVYQMEFVQR`, “minimum log2 enrichment ratio” read 4.88.
`AWAQWQHRTYTSHMD`: “minimum log2 enrichment ratio” 1.49.
For `IQYPQVYPPKYQIMV`, “minimum log2 enrichment ratio” read 5.81.
`WMENFHMPSMMHIQY` — result for “minimum log2 enrichment ratio”: 1.39.
`WTSQWQTRHPHHHTS` — result for “minimum log2 enrichment ratio”: 3.06.
Under “minimum log2 enrichment ratio”, `YTIDVVFEPKYQIMT` is recorded as 3.01.
Under “minimum log2 enrichment ratio”, `HTQTHWIPHEIRHV` is recorded as 3.29.
`TGMHDAHPHWWHMTV`: “minimum log2 enrichment ratio” 3.29.
For `VTPTSPFYPQYQIIF`, “minimum log2 enrichment ratio” read 4.07.
For `WVNVPHYQVFLHEHH`, “minimum log2 enrichment ratio” read 2.61.
`SRPIKWVPQYQIVI`: “minimum log2 enrichment ratio” 1.54.
Under “minimum log2 enrichment ratio”, `NNNIYWPKYQITNTL` is recorded as 2.85.
Under “minimum log2 enrichment ratio”, `NFFPQYQIEVSLPKH` is recorded as 5.23.
`HNHRHHITSAAIAQA` — result for “minimum log2 enrichment ratio”: 2.02.
For `HGHRWAHPVGPHGPM`, “minimum log2 enrichment ratio” read 2.11.
`GIVNKYLPKYQIETI`: “minimum log2 enrichment ratio” 5.28.
For `WIFPSQHARHYNTLG`, “minimum log2 enrichment ratio” read 1.78.
`HRASMHHVFSPHLDH` — result for “minimum log2 enrichment ratio”: 2.67.
`DNKMHARNHQQHPH` — result for “minimum log2 enrichment ratio”: 3.08.
Under “minimum log2 enrichment ratio”, `VYSPVYQIIVNQNH` is recorded as 3.43.
`TYRHSDHPVSSFAHV` — result for “minimum log2 enrichment ratio”: 2.14.
`YVDWGVWHKDFNMPH`: “minimum log2 enrichment ratio” 1.2.
`HYPHHDYLWHPITNV` — result for “minimum log2 enrichment ratio”: 1.69.
